# Published values from different studies.
# Each numbered part is a random draw from the data of one study; scales do not carry over between parts. Changes are numbered by the printed parent chain.

# Study 1 — method: competition protein-binding microarray; molecule type: double-stranded DNA, one strand shown; sample: in vitro; concentration: 2 µM; together with: Cbf1 competitor, 0.05 µM; direction: higher = stronger binding; all sequences stand within: … GTCTTGATTCGCTTGACGCTGCTG
# Target: Phosphate system positive regulatory protein PHO4, full length, GST-tagged (PHO4, Saccharomyces cerevisiae, UniProt P07270, residues 1-312)
# Notes: whole 60-bp probe, lowest competitor level
# Construct (chain): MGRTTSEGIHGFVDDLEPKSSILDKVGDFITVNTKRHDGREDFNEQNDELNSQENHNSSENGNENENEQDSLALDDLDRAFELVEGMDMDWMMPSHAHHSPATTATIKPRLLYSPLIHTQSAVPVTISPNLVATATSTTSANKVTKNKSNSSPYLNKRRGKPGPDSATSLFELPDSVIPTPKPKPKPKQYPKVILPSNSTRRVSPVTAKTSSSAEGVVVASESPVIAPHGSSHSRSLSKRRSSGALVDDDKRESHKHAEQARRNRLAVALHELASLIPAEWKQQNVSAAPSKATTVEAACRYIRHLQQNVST
Sequence,fluorescence intensity
GTGGCAGGAGGGTTTCTATTTAGTGTTCGGTAAAGG,5000 a.u.
CGTCCTAGTGATTGGAATGTGGGTGCCATGAGGAAG,7300 a.u.
AGGGTCTGATCCCTTCCCGTGGGTAGACCGATGACC,6990 a.u.
CTTCTGTAAATTTGTTAAGTGGGTGGACGCGCCCCG,4050 a.u.
CTCTCGAAGTTTGGAAACGTGGTGAGTGCCTTGACG,15100 a.u.
TGATAGTTTTTCTCCCTCGTGAAGCAGCATGTTTTA,8450 a.u.
AAACCCGGGCTGAAATCCGTGCAATGCATCAAATTT,4370 a.u.
TTCGATCAAGGCAACAACGTGGTGAAAACCGTACTT,12800 a.u.
CGTATGTCAGATCCTCGCATGATAAAAGAAATTATG,6100 a.u.
CCCGCCCCCGGCCAGCACGCGCCTCTGCCTGAGACC,10500 a.u.

# Study 2 — method: protein binding microarray; molecule type: double-stranded DNA, one strand shown; sample: in vitro; concentration: not given; baseline: not given; direction: higher = stronger binding
# Target: Histone acetyltransferase KAT6A, winged helix 2, GST fusion (KAT6A, Homo sapiens, UniProt Q92794, residues 85-181)
# Notes: 8-mer, flanks averaged, mean of 2 arrays, mostly near background
# Residues (chain): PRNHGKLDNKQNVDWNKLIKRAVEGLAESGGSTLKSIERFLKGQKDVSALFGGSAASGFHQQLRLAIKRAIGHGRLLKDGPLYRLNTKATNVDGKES
Sequence,E-score
GCTTGTAA,0.0814
AACACGGG,-0.038
ACCATCGG,-0.148
ACGCCATG,0.0168
GAGTGATC,-0.00685
AGACAGCC,-0.199
CCGACATC,0.00609
TGAATTAA,0.126
ATGGAACA,-0.0276
TCCCCTAA,-0.0115
AATTTCCC,-0.121
ACCAGGAA,7e-05
GAAGACCC,-0.109
CGCGCTAC,0.0212
AACTAGAG,0.0602
CTTAATTA,0.134
CTGAGTCC,-0.00314
CAAGATGC,0.11
ACCTTTAC,-0.0615
AGAAGGTC,-0.0762
TAAATACA,-0.0165
GGCCGTAA,0.144
CATGTACG,-0.14
CTGCTTCC,0.0954
ACCCCTTC,-0.209

# Study 3 — target: CCND1, cyclin fold, Cln2 fusion (human); method: yeast growth competition, sequencing; sample: yeast; notes: weak parent motif; baseline: not given; direction: higher = stronger binding
# Parent: CDC6 docking peptide (human); TLKGRRLVFDNQL
Substitution,normalised enrichment score
TLKGRRLVFRNQL [D10R],0.278
TLKGRRLGFDNQL [V8G],0.244
TLKGRRLVEDNQL [F9E],-0.125
TLKGRRLVFDNQQ [L13Q],1.17
TLKGRRLVLDNQL [F9L],0.292
TLKGRRLKFDNQL [V8K],0.243
TLKGRRLVFDAQL [N11A],1.09
TLKGRRLVFDNPL [Q12P],0.409
TLKMRRLVFDNQL [G4M],0.518
TLKGRRLWFDNQL [V8W],0.413
TLKGRRLVFANQL [D10A],-0.516
TLKARRLVFDNQL [G4A],0.598
TLKGRRLVFDMQL [N11M],0.342

# Study 4 — method: RNA Bind-n-Seq; molecule type: RNA; sample: in vitro; concentration: 200 nM; notes: whole 134-nt RNA, ends assumed; together with: 150 mM LiCl; baseline: input library; direction: higher = stronger binding; library: 7-deaza-guanosine replaces G
# Target: Ras GTPase-activating protein-binding protein 1, full length (G3BP1, Homo sapiens, UniProt Q13283)
# Sequence of UniProt Q13283 (whole entry, looked up): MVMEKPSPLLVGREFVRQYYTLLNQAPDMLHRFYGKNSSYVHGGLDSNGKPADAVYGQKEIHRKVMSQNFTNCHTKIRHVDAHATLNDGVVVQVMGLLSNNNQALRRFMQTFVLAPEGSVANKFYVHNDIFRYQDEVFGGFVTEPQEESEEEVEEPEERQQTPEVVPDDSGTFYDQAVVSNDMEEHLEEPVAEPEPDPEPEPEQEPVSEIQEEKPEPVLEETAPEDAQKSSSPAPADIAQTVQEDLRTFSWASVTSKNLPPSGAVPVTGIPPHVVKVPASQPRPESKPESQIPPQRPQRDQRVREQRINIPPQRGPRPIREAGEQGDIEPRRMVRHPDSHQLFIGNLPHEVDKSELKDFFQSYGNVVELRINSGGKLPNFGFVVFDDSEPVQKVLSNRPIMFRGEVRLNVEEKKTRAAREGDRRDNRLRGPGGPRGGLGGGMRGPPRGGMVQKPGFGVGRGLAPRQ
# All sequences stand within: GGGAGUUCUACAGUCCGACGAUC … UGGAAUUCUCGGGUGUCAAGG
Sequence,log2 enrichment
AGUCCUGUGCUACACAUCGUAUGUACCGAAUCGGGCCCCGGGGCCCCGGGCCCCGGGGAAAGUAUUAUGUUACGCCGUUCGGAUCUGCAC,-1.08
AAGUCCUGUGCUACACAUCGUAUGUACCGAAUCGGGGCCCGGCCCGGGGCCCGGGGAAAGUAUUAUGUUACGCCGUUCGGAUCUGCACUU,-1.22
CUGUGCUACACAUCGUAUGUACCGAAUCGGGGUUUUUUUGGGGUUUUUGGGGAAAAAGGGGAAAGUAUUAUGUUACGCCGUUCGGAUCUG,0.611
CCUCAAGUCCUGUGCUACACAUCGUAUGUACCGAAUCGGGUGGGUGGUGGGGAAAGUAUUAUGUUACGCCGUUCGGAUCUGCACUUCCAG,-0.0787
AGUCCUGUGCUACACAUCGUAUGUACCGAAUCGGUUUUUGGUUUUUUUGGAAAAAGGAAAGUAUUAUGUUACGCCGUUCGGAUCUGCACU,-1.78
UUAGGGAUGUGGCCAUAGAAUUCUCUCAGGAGGAGUGGAAAUGCCUGGACCCUGCUCAGAGGAUCUUAUACAGGGACGUGAUGUUGGAGA,0.178
CACAGACAACACGCACCCACACAGACACAGAGGGAAGGGGUUGGGAUGGGGACAGGGUGCACAGCAGGGCGGGUUAGGACCCCAGCCCCU,0.805

# Study 5 — method: universal PBM; molecule type: double-stranded DNA, one strand shown; sample: in vitro; concentration: not given; direction: higher = stronger binding
# Target: Sal-like protein 4, full length isoform B (SALL4, Homo sapiens, UniProt Q9UJQ4-2, residues 1-616)
# Notes: 8-mer, flanks averaged, mean of replicates
Sequence,E-score
ACCGTGAA,-0.175
GCAAGACA,0.00494
AAAGAGAT,0.0579
CAACCGGC,-0.265
CCACCAAA,-0.105
GACACGTA,0.101
CTGTCTGC,-0.0565
TATTCTCA,0.167
ATGTCAGG,-0.0336
CGATTCCC,-0.169
GACTACTC,-0.127
AGCGAATC,0.0554
AAGGGAAC,-0.152
GCGACTGA,-0.235
CAAACCTG,-0.101
CAGATCGC,-0.22
CGTAGTAC,0.061
CCCTCACG,-0.278
CGAACAGA,0.115
CTCCTACA,0.0624
AAGCGTGT,0.0685
TGACGAAA,0.125

# Study 6 — method: RNA Bind-n-Seq; molecule type: RNA; sample: in vitro; concentration: 365 nM; baseline: no-protein control; direction: higher = stronger binding
# Target: RNA binding protein fox-1 homolog 2, RRM domain, GST-SBP tag (RBFOX2, Homo sapiens, UniProt O43251-10, residues 100-194)
# Notes: natural RNA segment, single round, ends assumed
# All sequences stand within: GGGAGUUCUACAGUCCGACGAUC … UGGAAUUCUCGGGUGCCAA
# Residues (chain): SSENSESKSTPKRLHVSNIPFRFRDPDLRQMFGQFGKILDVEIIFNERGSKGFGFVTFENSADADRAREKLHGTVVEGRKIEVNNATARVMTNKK
Sequence,RBNS enrichment (R)
GAAUCAAAGGAAUUCUAGAAAGUAUCUGGGCAGAACGCUAGGAGAGAUCCAAAUUUCCAUUGUCUUGCAAGCAAAGCACGUAUUAAAUAUGAUCUGCAGCCAUUAAAAAG,2.76
UCCUAACAGCUCAGCCCUGGCCUUUUCUCACUACUGAUAGCAUCAUGUAAAUGCUCCAUGUUCCUGUACACUGUCUCCUUUUGGAGCAUCUCUGAAUGGAGCAUGGCUGU,0.284
AGAAUAUAAAUGAAUGCUUAAACAUUUGAAUACAGAUUCCUCCGGAUUGUUGAAUUCACUCAACUAGAAGUAAUAGGCGAUUUUAAAUCUUUAUAAAUGAUCUUGGGUAA,1.24
CCCCCAAGCCCUGAGUUUGCACCGAAGUCCUGAAUCAGAUCCUCAGAGCCCGGAGUUUGAAUCCCAGAGUCCUAAGUAUGAGCCCCGAAGCCCUGGCUGCCAUCCCAGGA,0.501
ACAAAAAAAAAAAAAAGCCAUUAAUCUGCCAGUCAAGACUACAGUUAAAAUCCCCUUCGCACUGCAGCAGUGCCCACCCCCUUCAUGUGAUUGUACAGUAUUCAAACUUU,0.403
AGCUAUAAACCCGCACUCAGCGCCUGCUCUCCAGACUCUCUCCCAGCCCCACGGGUCCACGAUGUACAAAAUCAUUUUGACCAGCAGGUCUGCAGACCCUUCCCCCACUG,0.378
AUUUUUAAAAGCGUCUGCCUUGGUGCGCAACCACCUCCUGCAUGCUAUGCAUGCUGUUGGGACUCGUAUUACAGGGAAUGGCAUUGAGAAGCCAAGUGGGACUCACUGCU,0.384
AGACCCUGUAUUUAAUCUACUUUGAUCAGAGAAGUAGAAUUUAUAACAGGUUAGCUAAAAUUGGGAGCAUGCCUUAAAACUUAAAGAUUGUAUGCAUAUAUGUGUAUAUG,1.44
GGGGGCUGGAGCCAUGCCUUGGUAGUGACAGACGCAGGUAAAGGUGACAUCCAUAAACAGAGGCAGGCCUAGGCUCUGGAAAGAUCCUCAGUCCUUUCUUACAACAACUU,0.413
UCUCUCUCCUGGAGUCUGAAGCCUGCAGGUCCGGGGAGGAGGUUCGGGAUUCCCUGGUGGGCCUCGACGUCCCUUGGAUCAGAGGUCAUCCCUUCCUCCUCUCCUGGAAA,0.331
AAACACAUUAAGUUGAUUGAGUUGGACAUACGGUUCCUGAAGUAUCUUGAUUUGUGUUUUUUUUUUUUUAAUGUUUUAUUUCAAAAUGAUCUAUUUCAGUAAAUCUCUUG,0.897
CACCACCCUGUGCCCCAGAUGAUGGAUUGAUUGUACAGAAAUCAUGCUGCCAUGCUGGGGGGGGGUCACCCCGACCCCUCAGGCCCACCUGUCACGGGGAACAUGGAGCC,0.221

# Study 7 — method: protein-binding microarray; molecule type: double-stranded DNA, one strand shown; sample: in vitro; concentration: 940 nM top; notes: 60-bp whole probe; together with: salmon DNA 0.4 mg/ml; baseline: random background probes; direction: higher = stronger binding; all sequences stand within: GCCTAGCAC … GTCTTGATTCGCTTGACGCTGCTG
# Target: Interferon regulatory factor 5, full length, phosphomimetic (IRF5, Homo sapiens, UniProt Q13568-2, residues 1-514, S451D/S453D/S456D/S462D)
Sequence,fitted relative affinity [z-score]
TTAGATCTCAGTATAGATTAGTGCTAG,0.281
ATAGGTCTCGGTCTCGGTTAGTGCTAG,5.03
TCATCTCACGCATCTGAAACTGTGCTA,0.696
TGCCCCCACACTCCTAGCACGTGCTAG,0.886
GACGACATCAGTCTCGAGACGTGCTAG,0.741
GACGATTTCAGTTCCGAGTCGTGCTAG,1.85
TTTTTGTTGTTTTTTGGTTTGTGCTAG,1.85
TTAGGTATCAGGTATCGGTTAGTGCTA,5.08
ATAGATCTCAGTCTCGATTAGTGCTAG,3.26
GACGGACTGGGACTGGGAACGTGCTAG,-0.59
GAGGGTATCGGTATCGGGACGTGCTAG,6.26
GACGAGTTCGGGTATCGAGACGTGCTA,0.96
TTAGGTTTTCTACTGCTTTAGTGCTAG,0.616
GACGGCTTCGGGACTGGGGACGTGCTA,-0.0909
TTAGACATCAGTATCGATTAGTGCTAG,4.55
GGCCCTATAGGTTTCTATATGTGCTAG,1.58
TCATTCATGAAATTTTAGACTGTGCTA,0.0098
GACGATTTCGGGTAACGAGACGTGCTA,0.548
TTAGGTATCCTTCTCCTTTAGTGCTAG,0.56
GATGGAAACTTAAACTAGAAAGTGCTA,0.26
GAACATACTAGTTTCCATTTGTGCTAG,0.93
GGCGGACTGGGACTGGGGACGTGCTAG,-0.775
